{"data": "Measurements gathered from unrelated publications", "B1": "MDM4 23-210 (Homo sapiens, UniProt O15151); chain GPLGSQINQVRPKLPLLKILHAAGAQGEMFTVKEVMHYLGQYIMVKQLYDQQEQHMVYCGGDLLGELLGRQSFSVKDPSPLYDMLRKNLVTLATATTDAAQTLALAQDHSMDIPSQDQLKQSAEESSTSRKRTTEDDIPTLPTSEHKCIHSREDEDLIENLAQDETSRLDLGFEEWDVAGLPWWFLGNLRSNY", "B2": "Cacna1c 1647-1777 (Mus musculus, UniProt Q01815); sequence looked up; chain NALSLQAGLRTLHDIGPEIRRAISGDLTAEEELDKAMKEAVSAASEDDIFRRAGGLFGNHVTYYQSDSRGNFPQTFATQRPLHINKTGNNQADTESPSHEKLVDSTFTPSSYSSTGSNANINNANNTALGR", "B3": "DUSP1 3-148 (Homo sapiens, UniProt P28562); sequence looked up; chain MEVGTLDAGGLRALLGERAAQCLLLDCRSFFAFNAGHIAGSVNVRFSTIVRRRAKGAMGLEHIVPNAELRGRLLAGAYHAVVLLDERSAALDGAKRDGTLALAAGALCREARAAQVFFLKGGYEAFSASCPELCSKQSTPMGLSLP", "B4": "RAP1A (Homo sapiens, UniProt P62834); sequence looked up; chain MREYKLVVLGSGGVGKSALTVQFVQGIFVEKYDPTIEDSYRKQVEVDCQQCMLEILDTAGTEQFTAMRDLYMKNGQGFALVYSITAQSTFNDLQDLREQILRVKDTEDVPMILVGNKCDLEDERVVGKEQGQNLARQWCNCAFLESSAKSKINVNEIFYDLVRQINRKTPVEKKKPKKKSCLLL", "B5": "HCK 78-138 (Homo sapiens, UniProt P08631); chain SEDIIVVALYDYEAIHHEDLSFQKGDQMVVLEESGEWWKARSLATRKEGYIPSNYVARVDS", "note": "Compare with care: the assays were run in different laboratories. Several values in a cell are separate wells, animals, samples, runs or records. ± gives the spread as reported.", "chain of UniProt P48067 (whole entry, looked up)": "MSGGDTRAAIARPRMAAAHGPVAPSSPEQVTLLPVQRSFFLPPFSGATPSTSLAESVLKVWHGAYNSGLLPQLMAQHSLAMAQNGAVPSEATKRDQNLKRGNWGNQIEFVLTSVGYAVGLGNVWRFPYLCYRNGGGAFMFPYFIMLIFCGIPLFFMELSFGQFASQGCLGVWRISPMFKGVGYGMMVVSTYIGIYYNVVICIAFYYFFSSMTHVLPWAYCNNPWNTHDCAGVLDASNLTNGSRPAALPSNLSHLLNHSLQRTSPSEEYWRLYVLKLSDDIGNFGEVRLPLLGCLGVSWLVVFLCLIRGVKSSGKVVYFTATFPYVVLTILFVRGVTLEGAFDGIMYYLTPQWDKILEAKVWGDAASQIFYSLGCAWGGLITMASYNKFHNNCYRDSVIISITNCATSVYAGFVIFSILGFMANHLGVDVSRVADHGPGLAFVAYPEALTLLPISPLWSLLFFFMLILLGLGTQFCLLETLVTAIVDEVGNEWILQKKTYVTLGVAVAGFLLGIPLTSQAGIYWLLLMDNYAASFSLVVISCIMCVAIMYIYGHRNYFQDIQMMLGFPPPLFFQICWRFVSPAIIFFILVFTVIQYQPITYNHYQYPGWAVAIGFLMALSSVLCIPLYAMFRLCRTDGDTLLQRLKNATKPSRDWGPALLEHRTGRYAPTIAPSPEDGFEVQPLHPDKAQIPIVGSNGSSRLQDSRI", "chain of UniProt Q16539 (whole entry, looked up)": "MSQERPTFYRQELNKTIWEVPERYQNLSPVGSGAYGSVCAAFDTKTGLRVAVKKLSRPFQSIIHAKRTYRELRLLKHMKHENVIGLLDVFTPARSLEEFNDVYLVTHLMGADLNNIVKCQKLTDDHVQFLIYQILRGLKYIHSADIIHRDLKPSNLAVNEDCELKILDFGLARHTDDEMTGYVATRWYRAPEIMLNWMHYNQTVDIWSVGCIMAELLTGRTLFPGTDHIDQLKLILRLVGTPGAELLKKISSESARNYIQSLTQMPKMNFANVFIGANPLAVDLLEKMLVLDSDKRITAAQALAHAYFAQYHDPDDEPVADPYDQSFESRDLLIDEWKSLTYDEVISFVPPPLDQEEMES", "chain of UniProt Q8TCU6 (whole entry, unmodified, looked up)": "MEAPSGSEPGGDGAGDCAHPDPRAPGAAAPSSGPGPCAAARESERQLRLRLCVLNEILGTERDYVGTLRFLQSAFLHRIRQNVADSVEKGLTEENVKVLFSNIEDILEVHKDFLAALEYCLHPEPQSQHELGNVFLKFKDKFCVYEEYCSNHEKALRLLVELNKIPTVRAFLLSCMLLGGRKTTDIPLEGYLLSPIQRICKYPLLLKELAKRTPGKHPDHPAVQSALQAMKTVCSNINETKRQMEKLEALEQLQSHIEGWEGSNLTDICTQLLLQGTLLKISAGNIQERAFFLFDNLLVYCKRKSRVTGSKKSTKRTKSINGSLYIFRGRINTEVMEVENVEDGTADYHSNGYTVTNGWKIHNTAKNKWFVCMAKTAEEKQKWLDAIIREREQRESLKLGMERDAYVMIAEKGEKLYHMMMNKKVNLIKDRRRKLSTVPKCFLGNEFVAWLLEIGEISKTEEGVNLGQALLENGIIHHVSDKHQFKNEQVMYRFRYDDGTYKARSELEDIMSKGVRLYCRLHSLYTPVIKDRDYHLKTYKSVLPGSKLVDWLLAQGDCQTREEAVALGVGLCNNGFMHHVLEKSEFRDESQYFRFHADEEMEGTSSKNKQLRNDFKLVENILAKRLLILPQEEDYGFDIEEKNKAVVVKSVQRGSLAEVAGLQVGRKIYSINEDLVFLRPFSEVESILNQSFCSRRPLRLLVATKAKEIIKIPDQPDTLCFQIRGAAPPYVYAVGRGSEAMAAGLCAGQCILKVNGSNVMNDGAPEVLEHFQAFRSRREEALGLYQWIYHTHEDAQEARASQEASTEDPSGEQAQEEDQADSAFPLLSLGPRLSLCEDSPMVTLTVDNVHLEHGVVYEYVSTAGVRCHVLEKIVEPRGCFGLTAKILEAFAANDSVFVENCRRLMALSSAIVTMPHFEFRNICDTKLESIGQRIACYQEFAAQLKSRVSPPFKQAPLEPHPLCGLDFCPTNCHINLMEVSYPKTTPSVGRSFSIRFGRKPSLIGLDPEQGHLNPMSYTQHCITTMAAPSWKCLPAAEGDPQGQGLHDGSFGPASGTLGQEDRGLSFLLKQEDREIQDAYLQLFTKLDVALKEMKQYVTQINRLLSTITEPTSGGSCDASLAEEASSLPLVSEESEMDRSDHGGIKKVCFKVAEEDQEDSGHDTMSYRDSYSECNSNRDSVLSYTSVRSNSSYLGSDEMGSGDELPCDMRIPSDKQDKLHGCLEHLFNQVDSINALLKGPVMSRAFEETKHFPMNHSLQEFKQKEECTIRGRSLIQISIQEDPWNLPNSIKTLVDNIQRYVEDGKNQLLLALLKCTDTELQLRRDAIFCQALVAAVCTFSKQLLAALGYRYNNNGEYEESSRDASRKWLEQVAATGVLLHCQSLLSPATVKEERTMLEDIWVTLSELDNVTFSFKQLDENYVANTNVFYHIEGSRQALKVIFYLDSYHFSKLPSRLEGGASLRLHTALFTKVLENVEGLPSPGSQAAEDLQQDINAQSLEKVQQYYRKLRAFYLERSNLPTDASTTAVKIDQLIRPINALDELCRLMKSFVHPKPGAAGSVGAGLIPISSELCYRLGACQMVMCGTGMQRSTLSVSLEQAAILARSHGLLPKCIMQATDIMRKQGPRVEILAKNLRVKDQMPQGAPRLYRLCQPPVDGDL", "chain of UniProt Q14676 (whole entry, looked up)": "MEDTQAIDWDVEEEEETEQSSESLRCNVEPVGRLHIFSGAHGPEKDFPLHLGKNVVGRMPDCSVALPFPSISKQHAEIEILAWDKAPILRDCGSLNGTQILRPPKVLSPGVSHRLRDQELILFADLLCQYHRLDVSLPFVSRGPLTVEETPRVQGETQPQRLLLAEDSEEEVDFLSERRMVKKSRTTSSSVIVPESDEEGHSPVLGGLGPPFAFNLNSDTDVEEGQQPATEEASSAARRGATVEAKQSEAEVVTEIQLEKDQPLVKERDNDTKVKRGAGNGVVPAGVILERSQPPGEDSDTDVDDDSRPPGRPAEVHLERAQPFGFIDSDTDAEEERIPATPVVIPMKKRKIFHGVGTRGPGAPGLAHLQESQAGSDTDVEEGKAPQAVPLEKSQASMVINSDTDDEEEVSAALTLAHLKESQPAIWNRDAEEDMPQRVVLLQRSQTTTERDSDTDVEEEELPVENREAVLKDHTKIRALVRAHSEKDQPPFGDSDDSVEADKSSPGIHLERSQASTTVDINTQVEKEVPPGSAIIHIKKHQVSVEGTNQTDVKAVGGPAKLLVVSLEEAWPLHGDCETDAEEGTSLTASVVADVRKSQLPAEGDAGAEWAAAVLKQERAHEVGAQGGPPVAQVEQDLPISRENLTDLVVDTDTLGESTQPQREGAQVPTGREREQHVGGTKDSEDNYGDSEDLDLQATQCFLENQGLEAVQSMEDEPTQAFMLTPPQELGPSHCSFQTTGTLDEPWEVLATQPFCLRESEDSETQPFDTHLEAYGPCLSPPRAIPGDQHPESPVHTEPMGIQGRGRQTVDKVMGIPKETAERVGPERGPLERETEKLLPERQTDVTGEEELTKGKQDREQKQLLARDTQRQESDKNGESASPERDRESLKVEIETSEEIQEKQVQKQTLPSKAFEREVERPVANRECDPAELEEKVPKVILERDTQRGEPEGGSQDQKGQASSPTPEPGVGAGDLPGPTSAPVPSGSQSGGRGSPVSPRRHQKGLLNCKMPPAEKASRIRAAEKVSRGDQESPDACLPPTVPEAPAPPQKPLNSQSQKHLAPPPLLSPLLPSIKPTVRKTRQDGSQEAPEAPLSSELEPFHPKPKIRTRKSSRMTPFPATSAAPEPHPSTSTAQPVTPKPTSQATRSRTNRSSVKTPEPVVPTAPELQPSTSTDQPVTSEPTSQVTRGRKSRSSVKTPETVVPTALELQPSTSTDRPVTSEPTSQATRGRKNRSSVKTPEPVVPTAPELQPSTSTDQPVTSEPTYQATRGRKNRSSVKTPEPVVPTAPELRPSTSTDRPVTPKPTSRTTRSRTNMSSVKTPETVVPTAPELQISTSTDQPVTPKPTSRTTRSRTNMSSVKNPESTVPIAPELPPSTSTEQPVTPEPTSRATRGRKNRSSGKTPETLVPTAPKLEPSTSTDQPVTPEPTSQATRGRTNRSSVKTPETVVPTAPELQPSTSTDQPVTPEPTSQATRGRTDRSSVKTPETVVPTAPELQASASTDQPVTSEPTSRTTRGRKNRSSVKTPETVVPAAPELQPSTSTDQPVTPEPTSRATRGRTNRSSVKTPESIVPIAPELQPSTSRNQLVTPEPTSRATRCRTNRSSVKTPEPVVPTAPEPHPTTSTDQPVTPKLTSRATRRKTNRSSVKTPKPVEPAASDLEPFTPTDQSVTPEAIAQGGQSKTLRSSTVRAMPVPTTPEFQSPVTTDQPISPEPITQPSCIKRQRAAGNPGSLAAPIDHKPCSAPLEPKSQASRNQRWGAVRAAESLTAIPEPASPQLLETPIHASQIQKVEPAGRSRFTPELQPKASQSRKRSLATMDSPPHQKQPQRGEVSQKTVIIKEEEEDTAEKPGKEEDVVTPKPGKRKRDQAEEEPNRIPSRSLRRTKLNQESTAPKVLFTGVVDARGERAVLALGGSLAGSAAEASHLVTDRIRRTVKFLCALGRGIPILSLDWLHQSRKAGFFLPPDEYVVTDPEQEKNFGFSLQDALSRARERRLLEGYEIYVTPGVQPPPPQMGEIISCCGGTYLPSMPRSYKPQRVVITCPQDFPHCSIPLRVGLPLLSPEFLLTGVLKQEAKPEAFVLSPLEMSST"}
{"Molecule": "colistin", "tested on": "Klebsiella pneumoniae", "assay": "broth microdilution", "test system": "clinical isolate RKI-No_503/15", "quantity": "MIC", "value": "64 mg/L"}
{"Molecule": "PROS1 mature, fully Gla-carboxylated (Homo sapiens, UniProt P07225)", "tested on": "C4BPA/C4BPB mature (Homo sapiens)", "assay": "ELISA", "quantity": "Kd", "value": "0.0007 µM"}
{"Molecule": "B1 (MDM4 23-210)", "tested on": "TP53 1-312 (UniProt P04637)", "assay": "ITC", "quantity": "Kd", "value": "8.5 µM"}
{"Molecule": "SCN2A IQ region R1902C (Homo sapiens) (sequence not shown)", "tested on": "CALM1 (Homo sapiens, UniProt P0DP23)", "assay": "fluorescence titration", "conditions": "with: CaCl2", "quantity": "Kd", "value": "0.0216 µM"}
{"Molecule": "methyl-β-cyclodextrin", "tested on": "SLC6A9 (Homo sapiens, UniProt P48067)", "assay": "transport activity, [3H]glycine uptake", "conditions": "2.5 mg/mL, 1 min, with: glycine 150 µM", "scale": "higher = more transport", "quantity": "glycine uptake rate", "value": "50.6 a.u. and 37.8 a.u. and 37.4 a.u. and 40.5 a.u."}
{"Molecule": "B2 (Cacna1c 1647-1777)", "tested on": "Jph2 1-440 S165W (Mus musculus, UniProt Q9ET78)", "assay": "ITC", "quantity": "Kd", "value": "6.1 µM"}
{"Molecule": "B3 (DUSP1 3-148)", "tested on": "MAPK14 2-349 (Homo sapiens, UniProt Q16539)", "assay": "ITC", "quantity": "Kd", "value": "0.445 ± 0.067 µM"}
{"Molecule": "QGRWDHETIV", "tested on": "human SCRIB PDZ3-4 tandem (MBP fusion)", "assay": "automated holdup", "test system": "peptide, crude extract", "conditions": "concentration not given, corrected by standard peak, unit not given", "scale": "baseline: biotin control resin, higher = stronger binding", "quantity": "binding intensity", "value": 0.596}
{"Molecule": "B4 (RAP1A)", "tested on": "PREX1 1-791 (Homo sapiens, UniProt Q8TCU6)", "assay": "fluorescence titration", "conditions": "with: mant-GTP 1 µM", "quantity": "Kd", "value": "86 ± 8 µM"}
{"Molecule": "H2AX/H2B/H3/H4 nucleosome core particle, pS139 (Homo sapiens)", "tested on": "MDC1 BRCT 1891-2089 (Homo sapiens, UniProt Q14676)", "assay": "MST", "quantity": "Kd", "value": "0.0332 ± 0.0013 µM"}
{"Molecule": "Peginesatide", "tested on": "UT7/EPO", "assay": "RT-qPCR, refers to: IRF1", "conditions": "concentration not given, 90 min, normalized to HPRT1", "scale": "baseline: vehicle", "quantity": "mRNA level", "value": "3.4 fold"}
{"Molecule": "PALLD Ig3-Ig4 tandem del4 linker residues", "tested on": "ACTA1 F-actin (Oryctolagus cuniculus, UniProt P68135)", "assay": "co-sedimentation", "quantity": "Kd", "value": "4.4 ± 1.4 µM"}
{"Molecule": "GCVRLHESCLGQQVPCCDPAATCYCSGRGDNDLVCYCR (designed binder)", "tested on": "ITGAV/ITGB3 U87MG cells (Homo sapiens)", "assay": "flow cytometry", "test system": "designed binder, U87MG", "quantity": "Kd", "value": "0.00078 µM"}
{"Molecule": "GSGAGHETIV", "tested on": "human MAGI1-3/6 PDZ construct (MBP fusion)", "assay": "surface plasmon resonance", "test system": "peptide", "conditions": "concentration not given", "scale": "higher = stronger binding", "quantity": "normalised SPR binding response", "value": "16.8 normalised RU"}
{"Molecule": "ENAH EVH1 domain (Homo sapiens)", "tested on": "DVL1 peptide (Homo sapiens)", "assay": "BLI", "quantity": "Kd", "value": "> 150 µM"}
{"Molecule": "B5 (HCK 78-138)", "tested on": "PIK3R1 80-333 (Homo sapiens, UniProt P27986)", "assay": "ITC", "quantity": "Kd", "value": "26.2 ± 1.3 µM"}
{"note": "A few entries again:"}
{"Molecule": "B5 (HCK 78-138)", "tested on": "PIK3R1 80-333 (Homo sapiens, UniProt P27986)", "assay": "ITC", "quantity": "Kd", "value": "26.2 ± 1.3 µM"}
